Published values pooled from the literature.
Each line is one published result; not all experiments were run side by side. Numbers after ± are the reported error. In brackets after ≈: the same amount, converted by molar mass. Ends that are not written are not given here.
Organism: Escherichia coli

LLGDFFRKSKEKIGKEFKRIVQRIKDFLRNLVPRTESGY (LL-37-Gly-Tyr; also: 125I label, place not given here)
binding density (peptide; 5 µg/mL, 20 min, 22 °C): 1.4 ± 0.1 fg/µm²

CC[C@H](C)[C@H](NC(=O)CN)C(=O)NCC(=O)N[C@@H](CCCCN)C(=O)N[C@@H](Cc1ccccc1)C(=O)N[C@@H](CC(C)C)C(=O)N[C@@H](CCCCN)C(=O)N[C@@H](CCCCN)C(=O)N[C@@H](C)C(=O)N[C@@H](CCCCN)C(=O)N[C@@H](CCCCN)C(=O)N[C@@H](Cc1ccccc1)C(=O)NCC(=O)N[C@@H](CCCCN)C(=O)N[C@@H](C)C(=O)N[C@@H](Cc1ccccc1)C(=O)N[C@H](C(=O)N[C@@H](CCCCN)C(=O)N[C@H](C(=O)N[C@@H](CC(C)C)C(=O)N[C@@H](CCCCN)C(=O)N[C@@H](CCCCN)C(N)=O)[C@@H](C)CC)C(C)C
MBC (K12): 12.5 µg/mL

CC(C)C[C@H](NC(=O)[C@H](C)NC(=O)[C@H](CCCCN)NC(=O)[C@H](C)NC(=O)[C@H](CC(C)C)NC(=O)[C@H](CCCCN)NC(=O)[C@H](CC(C)C)NC(=O)[C@H](Cc1c[nH]c2ccccc12)NC(=O)[C@H](CC(C)C)NC(=O)[C@H](CC(C)C)NC(=O)[C@H](C)NC(=O)[C@H](CC(C)C)NC(=O)[C@H](CC(C)C)NC(=O)[C@H](CCCCN)NC(=O)[C@@H]1CCCN1C(=O)[C@H](C)NC(=O)[C@H](CCCCN)NC(=O)[C@H](C)NC(=O)[C@H](CC(C)C)NC(=O)[C@H](CCCCN)NC(=O)[C@@H](N)CCCCN)C(=O)N[C@@H](CCCCN)C(=O)N[C@@H](CCCCN)C(=O)N[C@@H](C)C(N)=O
MIC50 (broth microdilution; NCTC 9001; overnight, 37 °C): 2.97 ± 0.15 µM (≈ 7.89 µg/mL)

CC(C)[n+]1cc(-c2ccc3ccccc3n2)cc2ccccc21
IC50 (lacZ reporter expression; VirF-independent lacZ control; 3 h, 37 °C, 6.2% DMSO, together with: 1 mM IPTG): > 100 µM

N=C(N)c1ccc(OCCCCCOc2ccc(C(=N)N)cc2)cc1
FICI (checkerboard; BW25113 mcr-1 plasmid; unit not given, together with: rifampicin; lower = stronger synergy): ≤ 0.25

CC(C)C[C@H](NC(=O)[C@H](C)NC(=O)[C@H](CCCCN)NC(=O)[C@H](Cc1c[nH]c2ccccc12)NC(=O)[C@H](CC(C)C)NC(=O)[C@H](CC(C)C)NC(=O)[C@H](C)NC(=O)[C@@H]1CCCN1C(=O)[C@H](CCCCN)NC(=O)[C@H](C)NC(=O)[C@H](CC(C)C)NC(=O)[C@H](C)NC(=O)[C@H](CC(C)C)NC(=O)[C@H](CCCCN)NC(=O)[C@H](CC(C)C)NC(=O)[C@H](CCCCN)NC(=O)[C@@H](N)CCCCN)C(=O)N[C@@H](C)C(=O)N[C@@H](CC(C)C)C(=O)N[C@@H](CCCCN)C(=O)N[C@@H](CC(C)C)C(=O)N[C@@H](CCCCN)C(=O)N[C@@H](CCCCN)C(=O)N[C@@H](C)C(N)=O
MIC50 (broth microdilution; TOP10; overnight, 37 °C): 0.45 ± 0.24 µM (≈ 1.2 µg/mL)

O=C(O)c1cn(C2CC2)c2cc(N3CCNCC3)c(F)cc2c1=O
MIC fold increase (wild type; evolution over 160 generations; relative to: ancestor strain): 390 fold

CC[C@H](C)[C@H](NC(=O)CN)C(=O)NCC(=O)N[C@@H](C)C(=O)N[C@H](C(=O)N[C@@H](CC(C)C)C(=O)N[C@@H](CCCCN)C(=O)N[C@H](C(=O)N[C@@H](CC(C)C)C(=O)N[C@H](C(=O)N[C@H](C(=O)NCC(=O)N[C@@H](CC(C)C)C(=O)N1CCC[C@H]1C(=O)N[C@@H](C)C(=O)N[C@@H](CC(C)C)C(=O)N[C@H](C(=O)N[C@@H](CO)C(=O)N[C@@H](Cc1c[nH]c2ccccc12)C(=O)N[C@H](C(=O)N[C@@H](CCCCN)C(=O)N[C@@H](CCCNC(=N)N)C(=O)N[C@@H](CCCCN)C(=O)N[C@@H](CCCNC(=N)N)C(=O)N[C@@H](CCC(N)=O)C(=O)N[C@@H](CCC(N)=O)C(N)=O)[C@@H](C)CC)[C@@H](C)CC)[C@@H](C)O)[C@@H](C)O)C(C)C)C(C)C
MBC (K-12 sample A (CGSC sample B)): 2 µM

CC(C)C[C@H](NC(=O)[C@H](C)NC(=O)[C@H](CCCCN)NC(=O)[C@H](C)NC(=O)[C@H](CC(C)C)NC(=O)[C@H](CCCCN)NC(=O)[C@H](CC(C)C)NC(=O)[C@H](Cc1c[nH]c2ccccc12)NC(=O)[C@H](CC(C)C)NC(=O)[C@@H]1CCCN1C(=O)[C@H](C)NC(=O)[C@H](CC(C)C)NC(=O)[C@H](CC(C)C)NC(=O)[C@H](CCCCN)NC(=O)[C@H](CC(C)C)NC(=O)[C@H](C)NC(=O)[C@H](CCCCN)NC(=O)[C@H](C)NC(=O)[C@H](CC(C)C)NC(=O)[C@H](CCCCN)NC(=O)[C@@H](N)CCCCN)C(=O)N[C@@H](CCCCN)C(=O)N[C@@H](CCCCN)C(=O)N[C@@H](C)C(N)=O
MIC50 (broth microdilution; TOP10; overnight, 37 °C): 0.8 ± 0.01 µM (≈ 2.13 µg/mL)

CC[C@H](C)[C@H](NC(=O)[C@@H]1CCCN1C(=O)[C@H](CCCNC(=N)N)NC(=O)[C@@H]1CCCN1C(=O)[C@@H]1CCCN1C(=O)[C@@H](NC(=O)[C@@H]1CCCN1C(=O)[C@H](CCCNC(=N)N)NC(=O)[C@@H]1CCCN1C(=O)[C@H](CC(C)C)NC(=O)[C@H](Cc1ccc(O)cc1)NC(=O)[C@H](CO)NC(=O)CNC(=O)[C@H](CCCCN)NC(=O)[C@H](CC(=O)O)NC(=O)[C@@H](N)C(C)C)[C@@H](C)O)C(=O)N[C@@H](Cc1ccc(O)cc1)C(=O)N[C@@H](CC(N)=O)C(=O)N[C@@H](CCCNC(=N)N)C(=O)N[C@@H](CC(N)=O)C(=O)O
MIC (JW0368 ΔsbmA; 18 h, 37 °C, 12.5% Mueller-Hinton broth): 2.4 ± 0.499 µM (≈ 5.62 µg/mL)

CCCCN1c2ccccc2C=C(c2ccc3ccccc3n2)C1c1ccccc1 (stereo not shown)
IC50 (lacZ reporter expression; VirF-independent lacZ control; 3 h, 37 °C, 6.2% DMSO, together with: 1 mM IPTG): > 100 µM

CC[C@H](C)[C@H](N)C(=O)N[C@@H](CC(C)C)C(=O)N1CCC[C@H]1C(=O)N[C@@H](Cc1c[nH]c2ccccc12)C(=O)N[C@@H](CCCCN)C(=O)N[C@@H](Cc1c[nH]c2ccccc12)C(=O)N1CCC[C@H]1C(=O)N[C@@H](Cc1c[nH]c2ccccc12)C(=O)N[C@@H](Cc1c[nH]c2ccccc12)C(=O)N1CCC[C@H]1C(=O)N[C@@H](Cc1c[nH]c2ccccc12)C(=O)N[C@@H](CCCNC(=N)N)C(=O)N[C@@H](CCCNC(=N)N)C(N)=O
MIC90 (broth microdilution; 18 h, 30 clinical isolates): 4 µg/mL (≈ 2.1 µM)

CC[C@H](C)[C@H](NC(=O)CNC(=O)[C@H](CC(=O)O)NC(=O)[C@H](CCCNC(=N)N)NC(=O)[C@@H](NC(=O)[C@H](CC(N)=O)NC(=O)[C@H](CCC(N)=O)NC(=O)CNC(=O)[C@@H](NC(=O)[C@H](CCCCN)NC(=O)[C@H](CCC(=O)O)NC(=O)[C@@H](NC(=O)[C@H](CCCCN)NC(=O)[C@H](CCCCN)NC(=O)[C@H](Cc1ccccc1)NC(=O)[C@H](CC(C)C)NC(=O)[C@H](CCCCN)NC(=O)[C@H](Cc1c[nH]c2ccccc12)NC(=O)[C@@H](N)CCCCN)[C@@H](C)CC)C(C)C)[C@@H](C)CC)C(=O)N[C@H](C(=O)N[C@@H](CCCCN)C(=O)N[C@@H](C)C(=O)NCC(=O)N1CCC[C@H]1C(=O)N[C@@H](C)C(=O)N[C@H](C(=O)N[C@@H](C)C(=O)N[C@H](C(=O)N[C@H](C(=O)NCC(=O)N[C@@H](CCC(N)=O)C(=O)N[C@@H](C)C(=O)N[C@H](C(=O)N[C@@H](CCC(N)=O)C(=O)N[C@H](C(=O)N[C@@H](C)C(=O)N[C@@H](CCCCN)C(N)=O)[C@@H](C)CC)[C@@H](C)O)C(C)C)C(C)C)C(C)C)[C@@H](C)CC
MBC (DH5α; 24 h, 37 °C): 20 µM

Excerpt of the above:
N=C(N)c1ccc(OCCCCCOc2ccc(C(=N)N)cc2)cc1
FICI (checkerboard; BW25113 mcr-1 plasmid; unit not given, together with: rifampicin; lower = stronger synergy): ≤ 0.25

O=C(O)c1cn(C2CC2)c2cc(N3CCNCC3)c(F)cc2c1=O
MIC fold increase (wild type; evolution over 160 generations; relative to: ancestor strain): 390 fold
